Measured values pooled from the literature.
Each line is one published result; not all experiments were run side by side. In brackets after ≈: the same amount, converted by molar mass.
Sequence of UniProt Q13188 (whole entry, looked up): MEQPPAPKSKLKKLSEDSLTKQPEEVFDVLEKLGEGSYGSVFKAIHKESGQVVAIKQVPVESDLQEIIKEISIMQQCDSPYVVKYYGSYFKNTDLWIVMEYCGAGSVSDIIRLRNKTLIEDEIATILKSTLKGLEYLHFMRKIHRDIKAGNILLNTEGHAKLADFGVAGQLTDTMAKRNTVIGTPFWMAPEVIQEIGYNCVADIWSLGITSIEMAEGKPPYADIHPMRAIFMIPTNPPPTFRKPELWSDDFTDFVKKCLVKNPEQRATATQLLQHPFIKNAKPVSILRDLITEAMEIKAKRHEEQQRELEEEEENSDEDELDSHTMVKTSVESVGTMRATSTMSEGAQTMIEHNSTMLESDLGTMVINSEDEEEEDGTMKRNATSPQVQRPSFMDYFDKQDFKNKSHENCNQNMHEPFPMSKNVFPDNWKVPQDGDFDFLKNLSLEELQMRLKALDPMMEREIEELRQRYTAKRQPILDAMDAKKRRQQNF

SMILES	tested on	test	test system	conditions	endpoint	value
COC(=O)c1cc(-c2cccc(NC(=O)Nc3ccc(C)c(Cl)c3)c2)on1	Escherichia coli	microbial growth, broth dilution	ATCC25922		MIC	> 64 µg/mL
C[C@@H](O)[C@@H]1NC(=O)[C@H](Cc2ccccc2)NC(=O)[C@@H](Cc2ccccc2)NC(=O)[C@H]([C@@H](C)O)NC(=O)[C@@H](CCCN)NC(=O)[C@H](CCCN)NC(=O)[C@@H](CCCCN)NC1=O	Balamuthia mandrillaris	parasite growth, ATP luminescence			IC50	> 16 µg/mL
O=C(NNc1ccccc1)c1nnc(CC23CC4CC(CC(C4)C2)C3)o1	Fusarium oxysporum	microbial growth			EC50	> 12.5 µg/mL
[2H]c1c([2H])c([C@]2([2H])CCCN2C(=O)C(C)(C)Oc2ccc3cn[nH]c3c2)c([2H])c([2H])c1C([2H])([2H])[2H]	STK3 (Homo sapiens, UniProt Q13188)	binding, competition with immobilised ligand		1 µM	remaining binding	92%
C#Cc1cccc(C=NNC(=O)c2ccc(Br)c(Br)c2)c1O	Aspergillus fumigatus	microbial growth		48 h, pH 6.5	MIC80	1 µg/mL (≈ 2.37 µM)
C[N+]1=C2C=C(N/C=C/c3ccc(O)cc3)C(=O)c3[nH]cc(c32)CC1	Babesia divergens	parasite growth, SYBR Green		60 h, blood stage	IC50	0.0563 µM
COC(=O)c1cc(-c2cccc(NC(=O)Nc3ccc(C)cc3)c2)on1	Mycobacteroides abscessus	microbial growth, broth dilution	ATCC19977	48 h	MIC	> 64 µg/mL
C#CC[C@@H]1NC(=O)[C@@H](CCCNC(=N)N)NC(=O)[C@H]([C@@H](C)O)NC(=O)[C@@H](CCCN)NC(=O)[C@H](Cc2ccccc2)NC(=O)[C@@H](Cc2ccccc2)NC1=O	Balamuthia mandrillaris	parasite growth, ATP luminescence			IC50	16.4 µM
COC(=O)c1cc(-c2cccc(NC(=S)Nc3cccc(Br)c3)c2)on1	Acinetobacter baumannii	microbial growth, broth dilution	BAA1605		MIC	> 64 µg/mL
C#Cc1ccc(C=NNC(=O)c2ccc(COC(C)C)cc2)c(O)c1	Aspergillus fumigatus	microbial growth		48 h, pH 6.5	MIC80	8 µg/mL (≈ 23.8 µM)
CCOC(=O)c1nnn(-c2cccc(NC(=O)Nc3ccc(Cl)c(Cl)c3)c2)c1C	Mycobacteroides abscessus	microbial growth, broth dilution	ATCC19977	48 h	MIC	> 64 µg/mL
Cc1ccc(NNC(=O)c2nnc(CC34CC5CC(CC(C5)C3)C4)o2)cc1	Sclerotinia sclerotiorum	microbial growth		50 µg/mL	inhibition	73%
C#Cc1ccc(O)c(C=NNC(=O)c2ccc(Br)c(Br)c2)c1	Aspergillus fumigatus	microbial growth		48 h, pH 6.5	MIC80	2 µg/mL (≈ 4.74 µM)
CC(C)[C@@H]1NC(=O)[C@@H](Cc2ccccc2)NC(=O)[C@H](Cc2ccccc2)NC(=O)[C@@H]([C@H](C)O)NC(=O)[C@H]([C@@H](C)O)NC(=O)[C@@H](CCCNC(=N)N)NC1=O	Balamuthia mandrillaris	parasite growth, ATP luminescence			IC50	> 16 µg/mL
O=C(NNc1cc(F)ccc1F)c1nnc(C23CC4CC(CC(C4)C2)C3)o1	Fusarium oxysporum	microbial growth		50 µg/mL	inhibition	100%
N=C(N)c1ccc(OCCCCCOc2ccc(C(=N)N)cc2)cc1	Leishmania donovani	parasite growth	THP-1	intracellular, amastigote	IC90	7 µg/mL (≈ 20.6 µM)
C#Cc1ccc(O)c(C=NNC(=O)c2ccc(C3(C(F)(F)F)N=N3)cc2)c1	Aspergillus fumigatus	microbial growth		48 h, pH 6.5	MIC80	≤ 0.25 µg/mL

SMILES	tested on	test	test system	conditions	endpoint	value
Cc1noc(C)c1CC(=O)N1CCOc2c(O)cc(Br)cc2C1	Leishmania mexicana	parasite growth		intracellular, amastigote	EC50	> 15.2 µM
O=C(NNc1ccc(Cl)c(Cl)c1)c1nnc(C23CC4CC(CC(C4)C2)C3)o1	Fusarium oxysporum	microbial growth			EC50	> 12.5 µg/mL
Oc1c(Cl)cc(Cl)cc1-c1[nH]c(Cl)c(Cl)c1Cl	Acinetobacter baumannii	microbial growth	ATCC19606		MIC	4 µM
CC(=O)N1CCN(c2ccc(OCC3COC(Cn4ccnc4)(c4ccc(Cl)cc4Cl)O3)cc2)CC1 (stereo not shown)	Candida albicans	microbial killing, broth dilution	SP3903	48 h	MFC	> 64 µM
CC(C)[C@@H]1NC(=O)[C@@H](CCCN)NC(=O)[C@H]([C@@H](C)O)NC(=O)[C@H](Cc2ccccc2)NC(=O)[C@@H](Cc2ccccc2)NC(=O)[C@H](Cc2ccccc2)NC(=O)[C@@H](CCCN)NC1=O	Balamuthia mandrillaris	parasite growth, ATP luminescence			IC90	> 16 µg/mL
COC(=O)c1cc(-c2cccc(NC(=S)Nc3cccc(Cl)c3)c2)on1	Mycobacteroides abscessus	microbial growth, broth dilution	ATCC19977	48 h	MIC	> 64 µg/mL
O=C(NNc1ccc(Cl)c(Cl)c1)c1nnc(CC23CC4CC(CC(C4)C2)C3)o1	Fusarium oxysporum	microbial growth		50 µg/mL	inhibition	40.9%
COC(=O)c1cc(-c2ccc(OC)c(NC(=O)Nc3ccc(Cl)c(Cl)c3)c2)on1	Acinetobacter baumannii	microbial growth, broth dilution	BAA1605		MIC	> 64 µg/mL
NCCCC[C@H]1NC(=O)[C@H](CO)NC(=O)[C@H](Cc2ccccc2)NC(=O)[C@@H](Cc2ccccc2)NC(=O)[C@H](Cc2c[nH]c3ccccc23)NC(=O)[C@@H](CCCN)NC(=O)[C@H](CCCN)NC1=O	Balamuthia mandrillaris	parasite growth, ATP luminescence			IC90	> 16 µg/mL
O=C(NNc1cccc(Cl)c1)c1nnc(CC23CC4CC(CC(C4)C2)C3)o1	Sclerotinia sclerotiorum	microbial growth		50 µg/mL	inhibition	100%
C[C@@H](O)[C@@H]1NC(=O)[C@H](CCCNC(=N)N)NC(=O)[C@@H](Cc2ccccc2)NC(=O)[C@H](Cc2ccccc2)NC(=O)CNC1=O	Balamuthia mandrillaris	parasite growth, ATP luminescence			IC50	> 16 µg/mL
Oc1c(Br)cc(Br)cc1-c1[nH]c(Br)c(Br)c1Br	Shigella sonnei	microbial growth	ATCC25931		MIC	16 µM
COC(=O)c1cc(-c2cccc(NC(=O)Nc3cc(OC)ccc3OC)c2)on1	Mycobacteroides abscessus	microbial growth, broth dilution	ATCC19977	48 h	MIC	> 64 µg/mL
CC(C)[C@@H]1NC(=O)[C@@H](CC(N)=O)NC(=O)[C@H](CCCN)NC(=O)[C@@H](CC(N)=O)NC(=O)[C@H](CCCCN)NC(=O)[C@H](C(C)C)NC(=O)[C@@H](C(C)C)NC(=O)[C@@H](C(C)C)NC(=O)[C@@H](C(C)C)NC1=O	Balamuthia mandrillaris	parasite growth, ATP luminescence			IC50	> 16 µg/mL
COC(=O)c1cc(-c2cccc(NC(=O)Nc3ccccc3F)c2)on1	Acinetobacter baumannii	microbial growth, broth dilution	BAA1605		MIC	> 64 µg/mL
C[C@@H](O)[C@@H]1NC(=O)[C@H](Cc2ccccc2)NC(=O)[C@@H](Cc2ccccc2)NC(=O)[C@H](Cc2ccccc2)NC(=O)[C@@H](CCCN)NC(=O)[C@H](CCCCN)NC(=O)[C@@H](CCCCN)NC1=O	Balamuthia mandrillaris	parasite growth, ATP luminescence			IC50	> 16 µg/mL
O=C(NCCc1ncc(C(F)(F)F)cc1Cl)c1ccccc1C(F)(F)F	Fusarium oxysporum	microbial growth		50 µg/mL	inhibition	11.5%

For quick reference, copied from above:
SMILES	tested on	test	test system	conditions	endpoint	value
C[C@@H](O)[C@@H]1NC(=O)[C@H](CCCNC(=N)N)NC(=O)[C@@H](Cc2ccccc2)NC(=O)[C@H](Cc2ccccc2)NC(=O)CNC1=O	Balamuthia mandrillaris	parasite growth, ATP luminescence			IC50	> 16 µg/mL
[2H]c1c([2H])c([C@]2([2H])CCCN2C(=O)C(C)(C)Oc2ccc3cn[nH]c3c2)c([2H])c([2H])c1C([2H])([2H])[2H]	STK3 (Homo sapiens, UniProt Q13188)	binding, competition with immobilised ligand		1 µM	remaining binding	92%
CCOC(=O)c1nnn(-c2cccc(NC(=O)Nc3ccc(Cl)c(Cl)c3)c2)c1C	Mycobacteroides abscessus	microbial growth, broth dilution	ATCC19977	48 h	MIC	> 64 µg/mL
Oc1c(Br)cc(Br)cc1-c1[nH]c(Br)c(Br)c1Br	Shigella sonnei	microbial growth	ATCC25931		MIC	16 µM
